# Assay results of several laboratories.
# Every numbered part comes from another study and shows a few of its results, in no order.
# UniProt P29320, sequence (whole entry, looked up): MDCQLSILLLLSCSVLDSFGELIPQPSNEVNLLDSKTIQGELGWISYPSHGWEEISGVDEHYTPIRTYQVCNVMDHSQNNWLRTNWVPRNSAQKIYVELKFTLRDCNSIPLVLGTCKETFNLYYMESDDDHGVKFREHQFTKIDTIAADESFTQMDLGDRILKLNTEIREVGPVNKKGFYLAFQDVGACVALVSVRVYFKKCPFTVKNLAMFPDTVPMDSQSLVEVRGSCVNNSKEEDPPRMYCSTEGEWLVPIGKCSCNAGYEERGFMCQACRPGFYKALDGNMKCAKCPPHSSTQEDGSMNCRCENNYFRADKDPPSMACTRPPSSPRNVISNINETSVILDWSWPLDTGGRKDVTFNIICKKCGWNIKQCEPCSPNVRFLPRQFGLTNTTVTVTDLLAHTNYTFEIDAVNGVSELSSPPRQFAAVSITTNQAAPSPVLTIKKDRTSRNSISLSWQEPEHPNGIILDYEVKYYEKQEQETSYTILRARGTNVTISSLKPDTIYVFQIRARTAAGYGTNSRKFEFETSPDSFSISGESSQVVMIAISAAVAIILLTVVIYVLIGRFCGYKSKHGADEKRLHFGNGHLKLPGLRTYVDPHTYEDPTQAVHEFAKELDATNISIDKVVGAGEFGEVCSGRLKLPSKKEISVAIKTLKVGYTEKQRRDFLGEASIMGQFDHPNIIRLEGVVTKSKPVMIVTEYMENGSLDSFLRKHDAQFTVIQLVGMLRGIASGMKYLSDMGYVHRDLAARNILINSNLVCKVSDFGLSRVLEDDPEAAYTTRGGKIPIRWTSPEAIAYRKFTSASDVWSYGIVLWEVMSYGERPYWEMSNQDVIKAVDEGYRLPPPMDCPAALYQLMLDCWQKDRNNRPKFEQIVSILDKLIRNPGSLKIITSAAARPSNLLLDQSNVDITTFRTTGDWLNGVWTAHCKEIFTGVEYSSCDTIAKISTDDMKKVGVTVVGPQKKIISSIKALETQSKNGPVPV
# UniProt Q92918, sequence (whole entry, looked up): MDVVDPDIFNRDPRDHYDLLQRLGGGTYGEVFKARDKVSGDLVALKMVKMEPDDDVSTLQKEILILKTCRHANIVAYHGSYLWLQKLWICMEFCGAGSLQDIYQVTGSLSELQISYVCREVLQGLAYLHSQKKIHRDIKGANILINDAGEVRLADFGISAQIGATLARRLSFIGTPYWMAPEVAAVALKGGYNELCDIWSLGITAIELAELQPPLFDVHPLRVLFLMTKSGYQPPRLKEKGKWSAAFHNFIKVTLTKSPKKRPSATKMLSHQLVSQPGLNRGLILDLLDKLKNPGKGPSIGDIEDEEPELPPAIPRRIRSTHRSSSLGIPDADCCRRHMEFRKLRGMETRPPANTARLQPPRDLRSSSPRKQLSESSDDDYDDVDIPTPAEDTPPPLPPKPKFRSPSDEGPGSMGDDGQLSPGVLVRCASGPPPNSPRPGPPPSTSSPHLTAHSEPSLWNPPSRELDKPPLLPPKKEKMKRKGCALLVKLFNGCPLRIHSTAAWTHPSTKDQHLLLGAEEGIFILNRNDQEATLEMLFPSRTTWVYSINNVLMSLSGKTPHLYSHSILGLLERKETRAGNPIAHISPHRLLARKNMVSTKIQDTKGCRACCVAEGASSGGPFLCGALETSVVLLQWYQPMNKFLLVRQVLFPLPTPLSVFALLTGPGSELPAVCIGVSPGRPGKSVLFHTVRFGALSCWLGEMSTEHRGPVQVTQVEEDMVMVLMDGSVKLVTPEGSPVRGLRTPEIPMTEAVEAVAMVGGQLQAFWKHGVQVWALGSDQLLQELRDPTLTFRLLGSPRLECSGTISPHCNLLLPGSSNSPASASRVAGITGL
# UniProt Q96PY6, sequence (whole entry, looked up): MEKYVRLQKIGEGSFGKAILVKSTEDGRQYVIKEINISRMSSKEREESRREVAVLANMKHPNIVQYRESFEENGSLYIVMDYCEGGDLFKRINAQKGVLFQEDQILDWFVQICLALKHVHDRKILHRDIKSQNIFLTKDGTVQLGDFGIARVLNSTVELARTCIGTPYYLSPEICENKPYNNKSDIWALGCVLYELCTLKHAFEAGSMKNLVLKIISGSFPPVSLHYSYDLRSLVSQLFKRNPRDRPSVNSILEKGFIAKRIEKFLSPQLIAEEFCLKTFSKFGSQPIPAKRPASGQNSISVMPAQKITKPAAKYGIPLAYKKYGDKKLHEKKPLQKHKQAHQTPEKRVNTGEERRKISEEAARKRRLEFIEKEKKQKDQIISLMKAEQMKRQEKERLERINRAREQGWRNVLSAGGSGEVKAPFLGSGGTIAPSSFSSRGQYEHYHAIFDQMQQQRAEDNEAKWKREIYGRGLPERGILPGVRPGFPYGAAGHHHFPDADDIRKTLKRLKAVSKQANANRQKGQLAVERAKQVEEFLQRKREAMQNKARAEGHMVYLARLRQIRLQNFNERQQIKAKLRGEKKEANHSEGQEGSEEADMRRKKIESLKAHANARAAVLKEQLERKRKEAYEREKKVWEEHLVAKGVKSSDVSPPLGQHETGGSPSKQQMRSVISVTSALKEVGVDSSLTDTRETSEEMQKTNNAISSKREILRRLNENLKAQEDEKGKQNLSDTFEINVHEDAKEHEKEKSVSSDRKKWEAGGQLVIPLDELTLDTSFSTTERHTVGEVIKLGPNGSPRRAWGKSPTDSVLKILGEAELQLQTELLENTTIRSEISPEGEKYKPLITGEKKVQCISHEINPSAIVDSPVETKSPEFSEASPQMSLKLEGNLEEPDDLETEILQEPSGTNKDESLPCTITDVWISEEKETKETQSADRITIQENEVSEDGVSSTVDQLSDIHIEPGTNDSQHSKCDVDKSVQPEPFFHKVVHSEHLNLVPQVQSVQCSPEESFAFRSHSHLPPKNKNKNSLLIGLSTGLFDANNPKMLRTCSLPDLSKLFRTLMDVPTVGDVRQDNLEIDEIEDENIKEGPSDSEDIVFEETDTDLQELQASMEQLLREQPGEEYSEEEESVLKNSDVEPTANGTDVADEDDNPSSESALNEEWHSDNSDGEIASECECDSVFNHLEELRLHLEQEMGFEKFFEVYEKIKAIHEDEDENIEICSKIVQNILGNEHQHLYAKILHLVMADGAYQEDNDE
# UniProt P49137, sequence (whole entry, looked up): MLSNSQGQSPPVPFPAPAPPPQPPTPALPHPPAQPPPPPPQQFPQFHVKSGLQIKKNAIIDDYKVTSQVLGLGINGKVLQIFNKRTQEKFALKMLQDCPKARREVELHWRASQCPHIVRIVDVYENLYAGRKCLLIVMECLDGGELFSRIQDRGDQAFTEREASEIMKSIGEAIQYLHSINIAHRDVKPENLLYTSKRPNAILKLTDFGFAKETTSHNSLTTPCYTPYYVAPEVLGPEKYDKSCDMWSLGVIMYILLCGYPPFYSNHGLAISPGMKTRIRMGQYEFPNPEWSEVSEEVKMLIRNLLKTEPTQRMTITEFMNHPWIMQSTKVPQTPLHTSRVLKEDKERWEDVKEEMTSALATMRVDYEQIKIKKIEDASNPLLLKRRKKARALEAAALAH
# UniProt Q9UL54, sequence (whole entry, looked up): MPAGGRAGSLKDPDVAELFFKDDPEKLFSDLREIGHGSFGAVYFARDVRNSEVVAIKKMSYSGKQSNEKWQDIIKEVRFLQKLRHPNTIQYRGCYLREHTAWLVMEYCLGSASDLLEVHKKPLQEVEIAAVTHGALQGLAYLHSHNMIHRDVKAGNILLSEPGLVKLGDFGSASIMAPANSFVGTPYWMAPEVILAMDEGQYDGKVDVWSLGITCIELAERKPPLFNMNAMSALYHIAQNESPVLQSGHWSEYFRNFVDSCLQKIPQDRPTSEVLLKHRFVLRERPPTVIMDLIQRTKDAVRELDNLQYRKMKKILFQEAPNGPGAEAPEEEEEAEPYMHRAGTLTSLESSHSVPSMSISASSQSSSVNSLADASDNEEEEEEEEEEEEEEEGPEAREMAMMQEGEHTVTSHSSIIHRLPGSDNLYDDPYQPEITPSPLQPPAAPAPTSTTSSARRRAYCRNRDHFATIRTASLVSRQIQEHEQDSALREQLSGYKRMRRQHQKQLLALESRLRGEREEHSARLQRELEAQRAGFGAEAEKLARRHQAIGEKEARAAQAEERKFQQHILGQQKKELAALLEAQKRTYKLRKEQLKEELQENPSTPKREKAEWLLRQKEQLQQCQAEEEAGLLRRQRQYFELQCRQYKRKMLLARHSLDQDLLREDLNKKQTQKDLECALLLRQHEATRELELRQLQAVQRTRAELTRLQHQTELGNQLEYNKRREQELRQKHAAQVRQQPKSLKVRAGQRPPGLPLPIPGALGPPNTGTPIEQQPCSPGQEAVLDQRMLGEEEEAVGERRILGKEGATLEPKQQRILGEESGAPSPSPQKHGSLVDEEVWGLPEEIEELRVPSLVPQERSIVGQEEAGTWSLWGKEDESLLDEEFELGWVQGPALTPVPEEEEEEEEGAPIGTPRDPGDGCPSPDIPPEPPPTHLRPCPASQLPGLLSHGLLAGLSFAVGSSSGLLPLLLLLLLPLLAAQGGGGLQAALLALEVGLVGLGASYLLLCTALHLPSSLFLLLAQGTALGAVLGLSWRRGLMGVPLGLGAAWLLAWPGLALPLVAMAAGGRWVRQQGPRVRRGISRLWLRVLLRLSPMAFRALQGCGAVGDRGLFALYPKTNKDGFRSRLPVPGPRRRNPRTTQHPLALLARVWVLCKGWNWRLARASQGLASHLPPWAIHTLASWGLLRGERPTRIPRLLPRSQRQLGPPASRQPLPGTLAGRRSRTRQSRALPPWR
# UniProt P27361, sequence (whole entry, looked up): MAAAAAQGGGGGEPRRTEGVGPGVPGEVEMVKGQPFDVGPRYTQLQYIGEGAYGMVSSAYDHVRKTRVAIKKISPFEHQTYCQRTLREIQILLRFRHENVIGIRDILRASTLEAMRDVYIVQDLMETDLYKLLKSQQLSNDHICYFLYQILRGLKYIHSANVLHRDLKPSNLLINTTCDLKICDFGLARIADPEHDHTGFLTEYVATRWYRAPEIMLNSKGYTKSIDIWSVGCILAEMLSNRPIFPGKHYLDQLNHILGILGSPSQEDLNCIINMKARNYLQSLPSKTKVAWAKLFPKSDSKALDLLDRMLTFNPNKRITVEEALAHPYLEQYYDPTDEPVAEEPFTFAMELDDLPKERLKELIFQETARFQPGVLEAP

# Block 1 — read-out: cell-free assay; method: competition with immobilised ligand; tested at: 1 µM
# Structure (SMILES): COc1cccc(CNC(=O)c2nc3scc(COCc4ccc(C(=O)O)cc4)c3c(=O)[nH]2)c1
target,remaining binding
"MAP4K1 (Homo sapiens, UniProt Q92918)",100%
"ALK (Homo sapiens, UniProt Q9UM73)",92%
"EPHA2 (Homo sapiens, UniProt P29317)",100%

# Block 2 — method: protein binding microarray; form: double-stranded DNA, one strand shown; medium: in vitro; tested at: not given; relative to: not given; reading: higher = stronger binding
# Target: Histone acetyltransferase KAT6A, winged helix 1, GST fusion (KAT6A, Homo sapiens, UniProt Q92794, residues 1-85)
# Notes: 8-mer, flanks averaged, mean of 2 arrays, mostly near background
# Target sequence (chain): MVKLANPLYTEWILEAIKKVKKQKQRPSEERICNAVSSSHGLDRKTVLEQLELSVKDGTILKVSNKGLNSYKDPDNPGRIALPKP
Oligonucleotide,E-score
GGCACGAA,-0.0989
CAGGGTAA,-0.115
GCGTTTTA,0.173
ATGATGAG,-0.233
TCTCTGAA,-0.153
GAACGGTA,0.129
GCTTCCCA,0.0751
ATACGTTC,-0.105

# Block 3 — read-out: enzyme activity; mode: inhibitor; tested at: 0.5 µM; relative to: control
# Structure (SMILES): Nc1nc(Nc2ccc(S(N)(=O)=O)cc2)nn1C(=S)Nc1c(F)cccc1F
target,remaining activity
"MAPK3 (Homo sapiens, UniProt P27361)",78.9%
"MAP2K2 (Homo sapiens, UniProt P36507)",96.6%
"TAOK2 (Homo sapiens, UniProt Q9UL54)",11.4%
"EPHA3 (Homo sapiens, UniProt P29320)",85.9%
"TBK1 (Homo sapiens, UniProt Q9UHD2)",10.3%
"NEK1 (Homo sapiens, UniProt Q96PY6)",6.11%
"GSK3B (Homo sapiens, UniProt P49841)",9.03%
"CSNK1G3 (Homo sapiens, UniProt Q9Y6M4)",20.8%
"CSNK1G2 (Homo sapiens, UniProt P78368)",14.8%
"MST1R (Homo sapiens, UniProt Q04912)",56%
"MAP3K5 (Homo sapiens, UniProt Q99683)",1.12%
"NEK6 (Homo sapiens, UniProt Q9HC98)",78.8%
"MAPKAPK2 (Homo sapiens, UniProt P49137)",91.1%

# Block 4 — method: aptamer microarray, sandwich; form: DNA with 2'F-ANA; medium: in vitro; tested at: 200 nM; added: Cy3 exosite-II aptamer, 400 nM; reading: higher = stronger binding; oligonucleotide: GGTTGGTGTGGTTGG
# Target: Prothrombin, mature alpha-thrombin (F2, Homo sapiens, UniProt P00734)
# Notes: whole 15-mer aptamer, many near background
Modification,mean fluorescence intensity [a.u.]
2'F-ANA at 1 2 4 6 7 9 10 11 14 15,51.6
2'F-ANA at 2 3 4 6 9 14,280
2'F-ANA at 2 3 4 6 7 8 9 10 12 14,178
2'F-ANA at 1 3 5 7 10 11 12,57.3
2'F-ANA at 2 5 7 9 10 12 13 14,136
2'F-ANA at 1 2 4 5 7 9 10 12 13 14 15,49.1
2'F-ANA at 2 5 6 8 10 11 12 13 14 15,89.6
2'F-ANA at 3 9 11 15,990
